Assay results collected from several papers.
Every numbered part comes from another study and shows a few of its results, in no order. Substitutions count along the parent as printed.

Series 1
Target: RNA binding protein fox-1 homolog 2, RRM domain, GST-SBP tag (RBFOX2, Homo sapiens, UniProt O43251-10, residues 100-194)
Method: RNA Bind-n-Seq
Molecule type: RNA
Sample: in vitro
Concentration: 365 nM
Notes: natural RNA segment, single round, ends assumed
Relative to: no-protein control
Reading: higher = stronger binding
Shared flanks, not repeated: GGGAGUUCUACAGUCCGACGAUC … UGGAAUUCUCGGGUGCCAA
Residues (chain): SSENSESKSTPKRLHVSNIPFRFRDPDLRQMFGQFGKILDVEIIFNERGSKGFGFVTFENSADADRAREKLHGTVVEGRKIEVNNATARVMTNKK
`AGGGCAGCCAGGUGUGCGUGUCUUGAAAUUACUGACUUGAGUUCUUGUAUCACAACUAAUUUCAGCUGAGAGUUCAGCCUUGGGAGAAAGCACACCAUGGUGGGAGAGGU` — result for “RBNS enrichment (R)”: 0.758.
`GGACUCAGAAAUGUGAGGGGGGCGGGGGCCUGGCGGGAGGCCUGGCCCCUUCCUCGUCCUUUCCUUUUGCCUUUGAGACCAAACCAAGUGCUUCCAAAUUCUUUUGGUGC`: “RBNS enrichment (R)” 0.274.
Under “RBNS enrichment (R)”, `ACAAAAUGGAAUGUAGAGGAUGUCUAUGAGUUCAUCCGCUCUCUGCCAGGCUGCCAGGAGAUCGCGGAGGAGUUCCGUGCGCAGGAGAUUGAUGGGCAAGCCUUGCUGCU` is recorded as 0.693.
For `GGGGUGUUUCUGCACUUGGCUAUGUGUGUCUUGUCUGAUGUCUGUCUUCUGUAGCUUUGCCUCUAUCAGGGCUGGAGUGGUGCAGCCCCUGGCAUCUCAGACAUGGUUCC`, “RBNS enrichment (R)” read 1.08.
For `GCUUGUGUGGUGGCUUCUUGUCCUUCUCUUUGACUUCUGUGGCAUGGUGCUAGUGCAUGUACCCUGUGGUAUUGCCCCUCUGUCCGUAGUGUGAACUGUCCUGUGAGCUU`, “RBNS enrichment (R)” read 6.94.
For `UUAAAAGAGGUGGUUGGCAAUUUAGGAUUCAUCUGGGUCUGUCCUGGUAAAGUCCUGCUGUGCAGAUGACUGCUGUCUCCUGGGAAGGUCUCGGCACGGAGCUCUCGAGG`, “RBNS enrichment (R)” read 0.341.
`GGGACGAUGCUUCCUCUCAUCCAAAACACAUGCAGAGUCACAUCCUCAUCCUAGUGUUUGGCAGUUUGAGACCGCUACCCUGAACUUAAGAGCUUUAAAUAUGAGGGUUG` — result for “RBNS enrichment (R)”: 0.612.
Under “RBNS enrichment (R)”, `GAAUAGGUAAAUGCCAAUACCCAUACAGUUUUUCUAGUGGGGACAAAGGCCGUUUUAUUAGAAAUUUAGGCUUUCAUGCCUGUAGACCCUAGUUAUUAAAUGCACUAAAC` is recorded as 1.19.
For `UUGGAAACCACCCAACAAAUAUUAGUAGCUGGAUAGCUACCUAUUUGUUGUUGAAUCCGGGUAUCCAGGCUGAGAAGGGAAGAAAAAUAGCCACUAACUCUGCAACAAUC`, “RBNS enrichment (R)” read 0.31.
`AAUCACUUCUUGAAGAAGUAUAAUUGUAAAUAAGCCAUGUAAAAUGCCUUUUUAAAAUUUAAUUUUCUAGCUGGCUCCAAUUCAAAUUGAGGAUUUAUGUAUUAGGCCAC` — result for “RBNS enrichment (R)”: 0.61.
For `UGAGAGUUCGAGGCUCUUUGUUUGGUAUCUUUUGUGUUAAUGUGUCUUGAAUCUGCCAAUCUGUAUGUUAAAACAGCUGACAGAUUGUAAAGCUAUUGCACUGCGUUGCC`, “RBNS enrichment (R)” read 0.906.
`CACCGUGAGCUGUAGGAUCAGCUGGCUGGCUGGGUUGGUGAGUGCCUACCUUGAGGUCUCAUGAAAGCUCCUGGAGCUGUGUGGUUGUCUUUGGUGCUGUUAACCCUUGG`: “RBNS enrichment (R)” 0.596.

Series 2
Organism: Saccharomyces cerevisiae
Observed: binding
Method: competitive growth deep sequencing
Molecule type: peptide
Strain: cyclin E1-Cln2 fusion strain
Concentration: concentration not given
Notes: peptide tiling library
Reading: direction not given
Under “growth enrichment score”, `CFRCLLFSFSGRSGVE` is recorded as -0.427.
For `ARKRLELGNLGNPQ`, “growth enrichment score” read -0.252.
`LRRKLFLDGNGSIS` — result for “growth enrichment score”: 0.234.
Under “growth enrichment score”, `DKYDEGLYRFNSLNDL` is recorded as 0.266.
For `GLPDFVFQQQPVESEA`, “growth enrichment score” read 0.108.
`DVSERGYVILPNDYFE`: “growth enrichment score” -0.00628.
Under “growth enrichment score”, `VEEEFFALRKRTPSAG` is recorded as 0.546.
Under “growth enrichment score”, `RDLFDCDFGDLTPLDF` is recorded as 0.544.
Under “growth enrichment score”, `AKRSLGFLPQPVPL` is recorded as 0.23.
`IQKKLRFEDTLEFVGF`: “growth enrichment score” 0.258.
`ESSTVSEEDYFSSHRD` — result for “growth enrichment score”: 0.552.
`QYQVVDDIVSKLVFDF`: “growth enrichment score” 0.373.
`ALLRRLQDVANDRGSH` — result for “growth enrichment score”: 0.0339.
Under “growth enrichment score”, `EAAPPTQEAQGETEPT` is recorded as 0.614.
`KPHVSDEEEEEPPFYH` — result for “growth enrichment score”: 0.157.

Series 3
Target: Hepatocyte nuclear factor 3-alpha (Foxa1, Mus musculus, UniProt P35582, residues 1-468, full length assumed)
UniProt P35582, sequence (whole entry, looked up): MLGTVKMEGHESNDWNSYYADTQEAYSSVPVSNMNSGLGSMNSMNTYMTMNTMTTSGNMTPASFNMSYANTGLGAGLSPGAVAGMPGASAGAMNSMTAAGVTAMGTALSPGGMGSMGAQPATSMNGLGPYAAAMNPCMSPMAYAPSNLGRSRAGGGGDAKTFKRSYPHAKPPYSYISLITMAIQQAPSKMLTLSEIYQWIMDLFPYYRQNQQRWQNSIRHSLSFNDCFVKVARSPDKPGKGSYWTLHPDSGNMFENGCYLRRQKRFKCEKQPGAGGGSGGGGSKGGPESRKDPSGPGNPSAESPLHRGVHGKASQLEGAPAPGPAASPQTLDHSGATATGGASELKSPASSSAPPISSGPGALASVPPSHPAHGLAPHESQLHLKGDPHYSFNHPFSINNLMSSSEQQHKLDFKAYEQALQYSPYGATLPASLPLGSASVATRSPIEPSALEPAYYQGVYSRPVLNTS
Method: EMSA with sequencing
Molecule type: double-stranded DNA, one strand shown
Sample: in vitro
Concentration: 10 and 20 nM
Notes: whole designed probe, mean of two concentrations, ends assumed
Relative to: negative control set to 0
Reading: higher = stronger binding
Shared flanks, not repeated: GTGAGCGGTGCCCATTGATGGGGAAC … TTTCACTGGGATCGTGGGGAC
For `AACATACATATGGTAAAAAATTGAAAAGAAACAAAAGATTATGTAACAGAAATGAATCTGCCACATACTCCAGATCCCACTGTCATTTCTCAGAGTAAACATGAATGGAAGTATACCATACATGTTGTTGTATACTGTGTTTGCTGAAAACAGAAAGTATCCTGGTGCTCTGCCTAATTACAGCTGCACAGTA`, “normalised bound fraction” read 0.236 ratio.
`CACAAAATTTTCCATTTGCTTCTCCTGCATTTAGAAGCATCCACTTCCCTCTCTTCCCTTTGCTTTTGAAATATAAGTGTAATATTTGCCCAGGGTAATCTGACTTGGAGCTTGGGAGACAGCATTGTGTAATGGATGTTAATTTGGCCTGATTTCACTCTTGGCTCTCTGATTTGTTAGATCTATGAACCTG` — result for “normalised bound fraction”: 0.0634 ratio.
`CTGGCTTAAAGTCCTCACTGAAGTGCCTTTTGTCTCTCCTCTTGGTTGTTTCCAAAAACAGTCTTAAAAAAAAAAATCCTTAAATTTCTTTTCATGTTTACATTATCCCTAACAGAATGTTTGCTAAGTGACCTTGGATATCTCACTTGGTACACATTTAGTTTGGTAGATACAACTTTTGTCCAGACAACCT` — result for “normalised bound fraction”: 0.395 ratio.
`CATCAGCAGGCTTCCTCTGAGAAGTTTCCCATCGACGTATCCTCTTTCAAGGGCCTTCCAAGCATGGAGACATTTCCTCAGAGATAATAAGAGTAAACAGGGAACTAAGGCCTCCCAGACCTTGACAGCCTCTGCCTGAGTGCACAGATGCAGCTGGGCTGTGGCAGCTCCGACTCGCAGAGCCAGGCGCCGC`: “normalised bound fraction” 0.109 ratio.
`TCTAATCCATACCAAGGATTCCCATGGGGAAACTGTTATCTCTCAACTCAGTGAGGGCTATTGACAAAGACCAGTGCTCTTTCTTCTCTGTAGGTAAACAGTGACTCATGCAAGCCTGAGGGAGAAAATACAGTATATCTAAGAGTTAAGACCTCCCAGCTTCACATTCTGTTATAGCAGCTGCTTCATGCCA` — result for “normalised bound fraction”: 0.273 ratio.
`TGTGCCTGAGCAAGCTGAGATTGCTCATCGTCTGGACAAACCTTGTTGAATCTTGTCAGGAAACTTTTTACATTGCTCCTTGGCAAATAGTGCAAATTACTTTGTTTAAATACCTGCAGGAAATAACACAATTGAGCAAACTAGAGACAAGGACAGTTAGTGTATTGAGTATTTTTTTCTCAATTTATTATGC`: “normalised bound fraction” 0.193 ratio.
`TGGCCCAGGGGTTGGGGACCCCTAATATATAATGATTCACATTATATATCAAAAGTAAATCAAAAAATTATAACTACAGCTAATTAAAAACTATGTAAACATACAGATGAAAATAAGATATTATGCAGCACTATAATTAGCTGCTGTTAAGTGATGATGTTGTAGAGAGGTTTTAATACAAATAAAACTTGGA`: “normalised bound fraction” 0.478 ratio.
`TGAAATGGTAGCTAGTAGATGGTGAATTTAAGCAAGATTTGTTCCCTTTCTTCCACTATACGCCTCTAAGGAAATTAAAAAAAAAAAAGGCTTGTTTACTTTGGAATGTGGAGTAAAGAGAGCAACAAGAGATTGAAGTCAAAGAATAGGTAAGTGAGCACTGTAAGGATCTGCAGAGACAGACAGAAAAAGT`: “normalised bound fraction” 0.421 ratio.

Series 4
Target: ABI1, truncated, D143A, DHFR fusion (Arabidopsis thaliana)
Method: DHFR PCA, deep sequencing
Sample: yeast
Notes: methotrexate growth selection, single substitutions
Together with: (+)-ABA 200 µM
Relative to: wild-type fitted maximum
Reading: higher = stronger binding
Starting sequence: PYL1, truncated, DHFR fusion (Arabidopsis thaliana); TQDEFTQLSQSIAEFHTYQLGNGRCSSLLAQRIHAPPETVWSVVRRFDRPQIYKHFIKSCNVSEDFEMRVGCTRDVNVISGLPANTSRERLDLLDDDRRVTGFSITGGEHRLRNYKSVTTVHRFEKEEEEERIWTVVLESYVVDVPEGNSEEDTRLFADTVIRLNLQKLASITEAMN
Under “relative binding score”, `R155L` is recorded as 84.9%.
For `Q7R`, “relative binding score” read 96.2%.
`Y18C` — result for “relative binding score”: 81%.
Under “relative binding score”, `L164T` is recorded as 105%.
`L94I`: “relative binding score” 97.6%.
`V100S`: “relative binding score” 67.9%.
For `T106W`, “relative binding score” read 91.4%.
For `E147F`, “relative binding score” read 92.5%.
`F47T`: “relative binding score” 1.2%.
`G107A`: “relative binding score” 92.1%.
Under “relative binding score”, `T17C` is recorded as 90.2%.
Under “relative binding score”, `R69P` is recorded as 40.6%.
`H122G`: “relative binding score” 37.7%.
For `V78D`, “relative binding score” read -4.12%.
For `S87W`, “relative binding score” read 0.928%.
For `E64A`, “relative binding score” read 102%.
Under “relative binding score”, `R99E` is recorded as 47.4%.
Under “relative binding score”, `L29E` is recorded as 17%.
`S26T` — result for “relative binding score”: 104%.
`N85H` — result for “relative binding score”: 101%.
For `E38Y`, “relative binding score” read 67.6%.
Under “relative binding score”, `T86Y` is recorded as 100%.
For `I52A`, “relative binding score” read 103%.
Under “relative binding score”, `L82N` is recorded as 15.5%.
Under “relative binding score”, `A13V` is recorded as 91.5%.

For quick reference, copied from above (series 2):
Under “growth enrichment score”, `RDLFDCDFGDLTPLDF` is recorded as 0.544.
Under “growth enrichment score”, `AKRSLGFLPQPVPL` is recorded as 0.23.
`IQKKLRFEDTLEFVGF`: “growth enrichment score” 0.258.
`ESSTVSEEDYFSSHRD` — result for “growth enrichment score”: 0.552.
`QYQVVDDIVSKLVFDF`: “growth enrichment score” 0.373.
`ALLRRLQDVANDRGSH` — result for “growth enrichment score”: 0.0339.
Under “growth enrichment score”, `EAAPPTQEAQGETEPT` is recorded as 0.614.
